Measured values of several laboratories.
Lines come from different studies, so protocols differ. Values joined by “and” are separate records of one study, mostly repeats; a detail may differ. ± gives the spread as reported.
TDP1: Tyrosyl-DNA phosphodiesterase 1 (TDP1, Homo sapiens, UniProt Q9NUW8)
Sequence of UniProt Q9NUW8 (whole entry, looked up): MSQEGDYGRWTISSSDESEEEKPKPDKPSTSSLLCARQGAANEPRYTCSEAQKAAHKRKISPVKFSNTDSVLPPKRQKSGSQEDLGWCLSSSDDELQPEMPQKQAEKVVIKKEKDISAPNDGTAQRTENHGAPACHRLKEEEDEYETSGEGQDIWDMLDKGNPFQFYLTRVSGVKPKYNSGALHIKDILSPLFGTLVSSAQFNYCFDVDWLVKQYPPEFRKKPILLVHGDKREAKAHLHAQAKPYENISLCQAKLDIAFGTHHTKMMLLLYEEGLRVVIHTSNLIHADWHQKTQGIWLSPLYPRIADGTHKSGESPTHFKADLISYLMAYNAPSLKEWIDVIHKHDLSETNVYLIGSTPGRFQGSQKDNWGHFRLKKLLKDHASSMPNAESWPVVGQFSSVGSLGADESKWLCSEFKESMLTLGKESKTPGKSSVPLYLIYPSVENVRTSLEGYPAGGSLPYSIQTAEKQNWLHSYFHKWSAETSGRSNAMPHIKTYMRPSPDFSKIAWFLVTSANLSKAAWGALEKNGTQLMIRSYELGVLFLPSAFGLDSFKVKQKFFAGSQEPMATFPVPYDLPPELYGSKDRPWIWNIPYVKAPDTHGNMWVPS
Albumin: Albumin (Mus musculus, UniProt P07724)
Sequence of UniProt P07724 (whole entry, looked up): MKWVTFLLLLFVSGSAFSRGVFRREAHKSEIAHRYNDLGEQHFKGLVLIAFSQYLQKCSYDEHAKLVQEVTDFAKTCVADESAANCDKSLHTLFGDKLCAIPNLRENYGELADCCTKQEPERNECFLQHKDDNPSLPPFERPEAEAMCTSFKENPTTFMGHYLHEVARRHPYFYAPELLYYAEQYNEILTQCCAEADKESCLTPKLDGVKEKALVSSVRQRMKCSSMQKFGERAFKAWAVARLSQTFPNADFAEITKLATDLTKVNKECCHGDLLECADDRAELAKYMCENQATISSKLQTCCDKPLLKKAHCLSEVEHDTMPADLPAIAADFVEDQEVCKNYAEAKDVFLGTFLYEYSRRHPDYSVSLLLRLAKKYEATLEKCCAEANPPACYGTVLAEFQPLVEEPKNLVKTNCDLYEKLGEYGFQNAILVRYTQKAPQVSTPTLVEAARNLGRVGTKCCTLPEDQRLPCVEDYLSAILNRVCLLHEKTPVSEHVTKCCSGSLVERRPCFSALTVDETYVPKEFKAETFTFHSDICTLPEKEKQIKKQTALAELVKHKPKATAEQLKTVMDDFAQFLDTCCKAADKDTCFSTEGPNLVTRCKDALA
Sequence of UniProt P20813 (whole entry, looked up): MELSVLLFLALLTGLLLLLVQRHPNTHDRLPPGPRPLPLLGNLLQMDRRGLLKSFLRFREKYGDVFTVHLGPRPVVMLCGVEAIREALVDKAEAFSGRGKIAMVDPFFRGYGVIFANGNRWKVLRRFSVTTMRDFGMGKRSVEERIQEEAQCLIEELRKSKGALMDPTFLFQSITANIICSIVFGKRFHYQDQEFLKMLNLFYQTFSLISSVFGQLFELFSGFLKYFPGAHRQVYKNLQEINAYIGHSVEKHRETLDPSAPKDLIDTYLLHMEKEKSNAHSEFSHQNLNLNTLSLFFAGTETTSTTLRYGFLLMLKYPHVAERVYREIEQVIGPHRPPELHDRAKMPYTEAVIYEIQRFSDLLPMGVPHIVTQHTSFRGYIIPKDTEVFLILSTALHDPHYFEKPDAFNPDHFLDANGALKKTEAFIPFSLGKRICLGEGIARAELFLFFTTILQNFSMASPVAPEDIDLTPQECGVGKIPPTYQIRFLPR

Structure (SMILES) | target or system | test | test system | conditions | how to read | measurement | result
Cc1ccc(/C=C/C(=O)c2ccccc(=O)c2O)cc1 | HepDES19 | cell growth or viability, MTS |  | 72 h |  | CC50 | 20 µM
N=C(N)NCCC[C@@H]1NC(=O)[C@H](CCCNC(=N)N)NC(=O)[C@@H](C(c2ccccc2)c2ccccc2)NC(=O)[C@H](Cc2c[nH]c3ccccc23)NC(=O)[C@@H](C(c2ccccc2)c2ccccc2)NC(=O)[C@@H](CCCNC(=N)N)NC(=O)[C@@H](CCCNC(=N)N)NC1=O | human red blood cells | haemolysis |  | 2 h, 37 °C |  | HC50 | 335 µg/mL
O=C(O)c1ccc(Nc2c(-c3ccc(CON=Cc4c(F)cccc4Oc4ccccc4)cc3)nc3cc(-c4ccccc4)ccn23)cc1 | TDP1 | enzyme activity, inhibitor |  | 100 µM, unpurified compound |  | inhibition | 73%
COc1cccc(OC)c1-c1cc(C(=O)NC2(C(=O)O)C3CC4CC(C3)CC2C4)nn1-c1ccc(C(=O)N(C)CCCN(C)CCCN(C)C(=O)[C@H](CCCCNC(=O)[C@H](CC(C)C)NC(=O)C2OC2C(=O)O)NC(=O)CN2CCN(CC(=O)[O-])CCN(CC(=O)[O-])CCN(CC(=O)[O-])CC2)cc1C(C)C.[177Lu+3] (mixture of isomers) | HT-29 tumour model |  | host not given, blood | 7 days, tumour-bearing |  | tracer uptake | 0.8 %ID/g
Nc1nc2cc(C(=O)c3ccc(F)cc3)ccc2[nH]1 | Salmonella typhimurium | Ames preincubation test | TA1537 | 19.5 µg per plate, 3 days, without S9 |  | revertants | 15.3 revertants per plate
CC(C)Cc1ccc(C(C)C(=O)N[C@@H](CCCCNC(=O)CCOCCOCCOCCOCCOCCOCCNC(=O)CN2CCN(CC(=O)[O-])CCN(CC(=O)[O-])CCN(CC(=O)[O-])CC2)C(=O)Nc2cccc3c(C(=O)NCC(=O)N4CC(F)(F)C[C@H]4C#N)ccnc23)cc1.[177Lu+3] (stereo partly drawn) | U-87 MG tumour model |  | host not given, stomach | 48 h, tumour-bearing |  | tracer uptake | 0.19 %ID/g
Cc1cc(O)c(=O)c(O)cc1-c1ccc(Cl)cc1 | HepDES19 | cell growth or viability, MTS |  | 72 h |  | CC50 | > 100 µM
Cc1cc(C=NOCc2ccc3nc(-c4ccccc4)c(Nc4ccc(C(=O)O)cc4)n3c2)c(C)n1-c1ccncc1 | TDP1 | enzyme activity, inhibitor |  | 100 µM, unpurified compound |  | inhibition | 16%
Cc1cc(O)c(=O)c(O)cc1S(=O)(=O)c1ccccc1 | HepDES19 | cell growth or viability, MTS |  | 72 h |  | CC50 | 39.5 µM
CC(C)OCCOCc1ccc(OCC(O)CN(N=O)C(C)C)cc1 (stereo not drawn) | Salmonella typhimurium | Ames test | TA1537 | 5 µg/plate, 30 % rat S9 | baseline: solvent control | revertant fold increase | 1.4 fold
CN1CCN(c2ccc3[nH]c(-c4ccc5[nH]c(-c6ccc(OCCCCNC(=O)c7cccc8c7C(=O)OC87c8ccc(N(C)C)cc8[Si](C)(C)c8cc(N(C)C)ccc87)cc6)nc5c4)nc3c2)CC1 | Albumin | binding, fluorescence titration | PBS | 1 h |  | Kd | 96 ± 53 µM
COc1cccc(OC)c1-c1cc(C(=O)NC2(C(=O)O)C3CC4CC(C3)CC2C4)nn1-c1ccc(C(=O)NCCNC(=O)[C@H](CCCCNC(=O)[C@H](CC(C)C)NC(=O)C2OC2C(=O)O)NC(=O)CN2CCN(CC(=O)[O-])CCN(CC(=O)[O-])CCN(CC(=O)[O-])CC2)cc1C(C)C.[177Lu+3] (mixture of isomers) | HT-29 tumour model |  | host not given, bone | 7 days, tumour-bearing |  | tracer uptake | 0.4 %ID/g
COC(=O)Nc1nc2cc(C(O)c3ccc(F)cc3)ccc2[nH]1 (stereo not drawn) | Escherichia coli | Ames preincubation test | WP2 uvrA | 437.5 µg/plate, without S9 |  | revertants | 37.3 revertants/plate
CCN(CC)CC#CCNc1ccnc2cc(Cl)ccc12 | Salmonella typhimurium | mini-Ames test | TA98 | 500.0 µg/well, with rat liver S9 |  | revertants | 15 revertants/well and 19 revertants/well
C=C(C)C1CCc2c(c(C)cc(O)c(=O)c2O)C1 (stereo not drawn) | HepDES19 | cell growth or viability, MTS |  | 72 h |  | CC50 | 35 µM
CNC(=O)C1CCCN(C(=O)C2CC3CCC2N3C(=O)[C@@H]2C[C@@H](O)CN2C(=O)NCc2cccc(Cl)c2F)C1 (mixture of isomers) | Cytochrome P450 2B6 (CYP2B6, Homo sapiens, UniProt P20813) | preincubation without NADPH | human | 16.7 µM | baseline: negative control | remaining activity | 102% and 95.5%
O=C1C2CC3CC1CC(C(=O)N1CCN(c4ccc([N+](=O)[O-])c5ncccc45)CC1)(C3)C2 | Salmonella typhimurium | Ames test | TA98 | 0.78 µg/well, without S9 |  | mean revertant colonies | 4 colonies/well

Structure (SMILES) | target or system | test | test system | conditions | how to read | measurement | result
O=C(Nc1cnccc1-c1ccc([18F])cc1)c1ccnc(NC(=O)C2CC2)c1 |  | PET imaging | FVB/NJ mice, both sexes, brain | intravenous, 5 min post-injection, P-gp inhibited, together with: tariquidar 15 mg/kg iv, 2 h before |  | SUV over first 5 min | 0.75 ± 0.21
O=C1NC2(CC2)COc2ncc(F)cc2[C@H]2COCCN2c2ccn3ncc1c3n2 | Salmonella typhimurium | Ames test | TA97a | 50 µg/plate, 48 h, together with: without S9 |  | revertant colonies | 86 ± 11 revertants/plate
Cc1cc(O)c(=O)c(O)cc1-c1ccc(Br)cc1 | HepDES19 | cell growth or viability, MTS |  | 72 h |  | CC50 | 38.3 µM
N#C[C@@H]1CC(F)(F)CN1C(=O)CNC(=O)c1ccnc2c(NC(=O)CCOCCOCCOCCOCCOCCOCCNC(=O)[C@H](CCCCNC(=O)CN3CCN(CC(=O)[O-])CCN(CC(=O)[O-])CCN(CC(=O)[O-])CC3)NC(=O)CCCc3ccc(I)cc3)cccc12.[177Lu+3] | U-87 MG tumour model |  | host not given, pancreas | 24 h, tumour-bearing |  | tracer uptake | 0.37 %ID/g
O=C(C=Cc1ccccc1)c1cc(Br)ccc(=O)c1O | HepDES19 | cell growth or viability, MTS |  | 72 h |  | CC50 | 1.6 µM
CN(Cc1nn(C)c2nc(N)[nH]c(=O)c2c1=O)c1nnn[nH]1 | Escherichia coli | LC-MS/MS | BW25113 | 100 µM, 10 min, 37 °C |  | intracellular accumulation | 9.92 ± 0.5 µM
COc1cccc(OC)c1-c1cc(C(=O)NC2(C(=O)O)C3CC4CC(C3)CC2C4)nn1-c1ccc(C(=O)N(C)CCOCCN(C)C(=O)[C@H](CCCCNC(=O)[C@H](CC(C)C)NC(=O)C2OC2C(=O)O)NC(=O)CN2CCN(CC(=O)[O-])CCN(CC(=O)[O-])CCN(CC(=O)[O-])CC2)cc1C(C)C.[177Lu+3] (mixture of isomers) | HT-29 tumour model |  | host not given, blood | 72 h, tumour-bearing |  | tracer uptake | 0.7 %ID/g
C=C(NC(=O)c1csc(-c2nc3c(cc2O)-c2nc(cs2)C(=O)NC(C(C)O)C(=O)NC(=C(C)OC)c2nc(cs2)C(=O)NC2c4nc(cs4)C(=O)NC(COC(=O)c4c5c6c(cccc6n4O)COC(=O)C(OC4CC(C)(O)C(N(C)C)C(C)O4)C2OC5)c2nc-3cs2)n1)C(N)=O (stereo not drawn) |  |  | Sprague-Dawley rat, both sexes, plasma | intravenous infusion, 18 mg/kg single dose |  | AUC(0-last) | 5480 ± 1000 ng·h/mL
O=CCNCCOn1c(=O)n(OCCNCCO)c(=O)n(OCCNCCOn2c(=O)n(OCCNCCO)c(=O)n(OCCNCCO)c2=O)c1=O | HUVEC | cell growth or viability, MTT |  | 200 µg/mL, 48 h |  | viability | 15.1%
N=C(N)NCCC[C@@H]1NC(=O)[C@@H](CCCNC(=N)N)NC(=O)[C@H](CCCNC(=N)N)NC(=O)[C@@H](C(c2ccccc2)c2ccccc2)NC(=O)[C@@H](C(c2ccccc2)c2ccccc2)NC(=O)[C@@H](C(c2ccccc2)c2ccccc2)NC(=O)[C@@H](CCCNC(=N)N)NC1=O | human red blood cells | haemolysis |  | 2 h, 37 °C |  | HC50 | 160 µg/mL
N#C[C@@H]1CC(F)(F)CN1C(=O)CNC(=O)c1ccnc2c(NC(=O)[C@H](CCCCNC(=O)CCOCCOCCOCCOCCOCCOCCNC(=O)CN3CCN(CC(=O)[O-])CCN(CC(=O)[O-])CCN(CC(=O)[O-])CC3)NC(=O)CCCc3ccc(I)cc3)cccc12.[177Lu+3] | U-87 MG tumour model |  | host not given, pancreas | 96 h, tumour-bearing |  | tracer uptake | 0.13 %ID/g
CN(C)c1ccc2c(c1)C(C)(C)c1cc(N(C)C)ccc1C21OC(=O)c2c(C(=O)O)cccc21 | Albumin | binding, fluorescence titration | PBS |  |  | Kd | 10 ± 2 µM
Cc1cc(O)c(=O)c(O)cc1-c1ccc2ccccc2c1 | HepDES19 | cell growth or viability, MTS |  | 72 h |  | CC50 | 86.8 µM
CN1CCN(c2ccc3[nH]c(-c4ccc5[nH]c(-c6ccc(OCCCCNC(=O)c7ccc8c(c7)C7(OC8=O)c8ccc(N(C)C)cc8[Si](C)(C)c8cc(N(C)C)ccc87)cc6)nc5c4)nc3c2)CC1 | Albumin | binding, fluorescence titration | PBS | 1 h |  | Kd | 62 ± 5 µM
O=C(/C=C/c1ccccn1)c1ccccc(=O)c1O | HepDES19 | cell growth or viability, MTS |  | 72 h |  | CC50 | 100 µM
N#C[C@@H]1CCCN1C(=O)CNC(=O)c1ccnc2ccc(OCCCN3CCN(C(=O)CCc4ccc5c(c4)CN4CCN(Cc6cc(CCC(=O)O)ccc6O)CC(=O)[O][Al-]([18F])([O]C(=O)C4)[O]5)CC3)cc12 (stereo partly drawn) | U-87 MG tumour model |  | host not given, blood | 1 h, tumour-bearing |  | tracer uptake | 2.12 %ID/g

A few entries again:
Structure (SMILES) | target or system | test | test system | conditions | how to read | measurement | result
N=C(N)NCCC[C@@H]1NC(=O)[C@H](CCCNC(=N)N)NC(=O)[C@@H](C(c2ccccc2)c2ccccc2)NC(=O)[C@H](Cc2c[nH]c3ccccc23)NC(=O)[C@@H](C(c2ccccc2)c2ccccc2)NC(=O)[C@@H](CCCNC(=N)N)NC(=O)[C@@H](CCCNC(=N)N)NC1=O | human red blood cells | haemolysis |  | 2 h, 37 °C |  | HC50 | 335 µg/mL
O=C(O)c1ccc(Nc2c(-c3ccc(CON=Cc4c(F)cccc4Oc4ccccc4)cc3)nc3cc(-c4ccccc4)ccn23)cc1 | TDP1 | enzyme activity, inhibitor |  | 100 µM, unpurified compound |  | inhibition | 73%
COc1cccc(OC)c1-c1cc(C(=O)NC2(C(=O)O)C3CC4CC(C3)CC2C4)nn1-c1ccc(C(=O)N(C)CCCN(C)CCCN(C)C(=O)[C@H](CCCCNC(=O)[C@H](CC(C)C)NC(=O)C2OC2C(=O)O)NC(=O)CN2CCN(CC(=O)[O-])CCN(CC(=O)[O-])CCN(CC(=O)[O-])CC2)cc1C(C)C.[177Lu+3] (mixture of isomers) | HT-29 tumour model |  | host not given, blood | 7 days, tumour-bearing |  | tracer uptake | 0.8 %ID/g
Nc1nc2cc(C(=O)c3ccc(F)cc3)ccc2[nH]1 | Salmonella typhimurium | Ames preincubation test | TA1537 | 19.5 µg per plate, 3 days, without S9 |  | revertants | 15.3 revertants per plate
